{"data": "Published values pooled from the literature", "note": "Parts stem from different laboratories: compare values within a part only. Several values in a cell are separate wells, animals, samples, runs or records.", "UniProt Q04912, sequence (whole entry, looked up)": "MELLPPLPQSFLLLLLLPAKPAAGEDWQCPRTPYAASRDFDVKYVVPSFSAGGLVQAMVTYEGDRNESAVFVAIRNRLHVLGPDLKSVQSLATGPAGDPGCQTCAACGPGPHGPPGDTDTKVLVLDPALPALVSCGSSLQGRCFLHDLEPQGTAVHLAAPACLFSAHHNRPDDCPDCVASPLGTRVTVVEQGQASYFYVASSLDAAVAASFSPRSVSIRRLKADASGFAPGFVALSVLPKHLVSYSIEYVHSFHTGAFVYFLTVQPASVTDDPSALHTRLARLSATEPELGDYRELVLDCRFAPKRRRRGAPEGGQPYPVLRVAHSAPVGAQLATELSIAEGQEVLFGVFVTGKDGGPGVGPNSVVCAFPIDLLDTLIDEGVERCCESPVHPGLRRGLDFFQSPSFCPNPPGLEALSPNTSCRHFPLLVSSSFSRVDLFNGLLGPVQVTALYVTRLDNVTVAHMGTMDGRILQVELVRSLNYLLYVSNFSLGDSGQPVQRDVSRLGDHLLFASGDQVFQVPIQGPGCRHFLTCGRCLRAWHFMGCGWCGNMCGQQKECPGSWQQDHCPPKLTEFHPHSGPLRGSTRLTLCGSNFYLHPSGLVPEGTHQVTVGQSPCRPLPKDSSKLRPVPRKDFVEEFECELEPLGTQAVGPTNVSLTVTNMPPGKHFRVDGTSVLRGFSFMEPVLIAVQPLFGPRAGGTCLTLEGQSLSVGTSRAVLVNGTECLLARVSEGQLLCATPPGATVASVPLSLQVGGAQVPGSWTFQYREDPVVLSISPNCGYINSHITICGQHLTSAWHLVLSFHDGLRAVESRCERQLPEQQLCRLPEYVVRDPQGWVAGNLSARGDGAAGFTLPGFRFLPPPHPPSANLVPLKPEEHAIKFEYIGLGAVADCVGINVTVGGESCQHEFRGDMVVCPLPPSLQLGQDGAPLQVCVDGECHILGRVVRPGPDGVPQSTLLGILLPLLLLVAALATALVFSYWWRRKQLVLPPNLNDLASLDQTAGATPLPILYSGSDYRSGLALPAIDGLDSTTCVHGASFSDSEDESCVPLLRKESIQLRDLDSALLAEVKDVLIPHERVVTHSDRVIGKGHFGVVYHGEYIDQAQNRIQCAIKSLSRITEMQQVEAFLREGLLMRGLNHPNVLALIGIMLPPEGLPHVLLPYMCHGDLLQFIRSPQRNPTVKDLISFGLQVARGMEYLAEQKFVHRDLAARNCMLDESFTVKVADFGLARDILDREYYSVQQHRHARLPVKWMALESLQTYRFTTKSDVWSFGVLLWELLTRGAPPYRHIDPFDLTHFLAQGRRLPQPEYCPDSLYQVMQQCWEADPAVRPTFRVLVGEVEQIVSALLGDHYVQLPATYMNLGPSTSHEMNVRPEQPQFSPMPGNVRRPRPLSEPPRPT", "UniProt Q9UM73, sequence (whole entry, unmodified, looked up)": "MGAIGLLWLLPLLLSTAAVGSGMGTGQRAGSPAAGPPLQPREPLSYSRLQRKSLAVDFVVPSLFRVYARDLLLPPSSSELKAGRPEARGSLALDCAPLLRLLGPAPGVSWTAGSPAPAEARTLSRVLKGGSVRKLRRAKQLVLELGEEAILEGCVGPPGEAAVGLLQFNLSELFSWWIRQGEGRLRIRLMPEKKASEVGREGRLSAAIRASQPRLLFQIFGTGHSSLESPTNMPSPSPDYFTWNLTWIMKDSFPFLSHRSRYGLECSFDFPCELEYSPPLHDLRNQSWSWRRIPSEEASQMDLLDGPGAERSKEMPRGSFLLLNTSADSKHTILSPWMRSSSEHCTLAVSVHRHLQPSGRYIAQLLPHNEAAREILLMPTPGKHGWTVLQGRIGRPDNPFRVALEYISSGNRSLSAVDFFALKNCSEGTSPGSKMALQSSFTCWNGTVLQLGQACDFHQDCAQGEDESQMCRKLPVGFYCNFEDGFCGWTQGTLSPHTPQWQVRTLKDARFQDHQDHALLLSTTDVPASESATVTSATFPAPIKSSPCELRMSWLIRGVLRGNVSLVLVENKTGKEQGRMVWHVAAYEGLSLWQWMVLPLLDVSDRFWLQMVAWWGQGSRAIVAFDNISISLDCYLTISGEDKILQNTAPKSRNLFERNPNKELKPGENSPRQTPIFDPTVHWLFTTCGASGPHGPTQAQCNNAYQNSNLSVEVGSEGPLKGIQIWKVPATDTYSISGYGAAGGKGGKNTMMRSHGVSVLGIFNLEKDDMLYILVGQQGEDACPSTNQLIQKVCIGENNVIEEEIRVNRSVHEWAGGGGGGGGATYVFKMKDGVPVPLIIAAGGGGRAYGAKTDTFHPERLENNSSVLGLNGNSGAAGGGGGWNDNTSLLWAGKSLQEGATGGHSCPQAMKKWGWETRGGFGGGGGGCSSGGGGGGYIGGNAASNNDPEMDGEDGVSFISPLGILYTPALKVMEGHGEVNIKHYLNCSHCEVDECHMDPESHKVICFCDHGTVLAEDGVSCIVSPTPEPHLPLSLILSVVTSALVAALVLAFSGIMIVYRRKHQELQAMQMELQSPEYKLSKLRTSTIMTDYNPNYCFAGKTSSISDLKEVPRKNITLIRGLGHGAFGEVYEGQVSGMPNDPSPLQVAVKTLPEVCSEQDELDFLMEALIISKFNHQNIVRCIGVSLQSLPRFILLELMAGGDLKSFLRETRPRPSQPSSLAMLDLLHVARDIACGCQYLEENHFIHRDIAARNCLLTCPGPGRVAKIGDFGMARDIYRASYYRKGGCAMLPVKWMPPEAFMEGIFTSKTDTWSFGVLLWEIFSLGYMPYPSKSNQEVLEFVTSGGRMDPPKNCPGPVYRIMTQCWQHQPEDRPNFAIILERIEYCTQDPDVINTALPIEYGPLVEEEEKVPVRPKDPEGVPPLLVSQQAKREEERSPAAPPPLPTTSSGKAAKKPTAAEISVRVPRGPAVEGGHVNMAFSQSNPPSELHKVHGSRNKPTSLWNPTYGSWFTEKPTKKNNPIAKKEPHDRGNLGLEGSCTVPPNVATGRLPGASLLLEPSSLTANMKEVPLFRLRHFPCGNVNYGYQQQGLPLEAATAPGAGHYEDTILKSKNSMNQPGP", "UniProt P11362, sequence (whole entry, looked up)": "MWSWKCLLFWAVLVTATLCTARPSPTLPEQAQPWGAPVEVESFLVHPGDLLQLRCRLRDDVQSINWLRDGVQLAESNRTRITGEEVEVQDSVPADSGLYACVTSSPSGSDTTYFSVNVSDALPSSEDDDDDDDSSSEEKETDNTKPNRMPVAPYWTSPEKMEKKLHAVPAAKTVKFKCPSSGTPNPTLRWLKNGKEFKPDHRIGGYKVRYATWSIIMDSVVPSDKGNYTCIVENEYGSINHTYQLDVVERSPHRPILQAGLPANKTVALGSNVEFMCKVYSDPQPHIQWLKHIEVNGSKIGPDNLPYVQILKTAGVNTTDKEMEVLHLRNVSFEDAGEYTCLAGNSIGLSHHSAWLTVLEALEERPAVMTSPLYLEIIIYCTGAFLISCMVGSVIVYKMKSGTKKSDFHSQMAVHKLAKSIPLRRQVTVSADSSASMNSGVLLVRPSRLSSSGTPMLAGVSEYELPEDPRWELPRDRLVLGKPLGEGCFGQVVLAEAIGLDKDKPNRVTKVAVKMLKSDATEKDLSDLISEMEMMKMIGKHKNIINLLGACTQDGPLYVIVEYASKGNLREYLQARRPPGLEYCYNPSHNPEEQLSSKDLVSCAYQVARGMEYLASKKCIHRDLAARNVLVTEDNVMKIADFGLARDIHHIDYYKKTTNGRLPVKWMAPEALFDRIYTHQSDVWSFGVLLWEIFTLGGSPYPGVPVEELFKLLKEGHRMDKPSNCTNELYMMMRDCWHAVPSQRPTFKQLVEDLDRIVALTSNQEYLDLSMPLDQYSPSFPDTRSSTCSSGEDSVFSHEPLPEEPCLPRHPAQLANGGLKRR", "UniProt P10398, sequence (whole entry, looked up)": "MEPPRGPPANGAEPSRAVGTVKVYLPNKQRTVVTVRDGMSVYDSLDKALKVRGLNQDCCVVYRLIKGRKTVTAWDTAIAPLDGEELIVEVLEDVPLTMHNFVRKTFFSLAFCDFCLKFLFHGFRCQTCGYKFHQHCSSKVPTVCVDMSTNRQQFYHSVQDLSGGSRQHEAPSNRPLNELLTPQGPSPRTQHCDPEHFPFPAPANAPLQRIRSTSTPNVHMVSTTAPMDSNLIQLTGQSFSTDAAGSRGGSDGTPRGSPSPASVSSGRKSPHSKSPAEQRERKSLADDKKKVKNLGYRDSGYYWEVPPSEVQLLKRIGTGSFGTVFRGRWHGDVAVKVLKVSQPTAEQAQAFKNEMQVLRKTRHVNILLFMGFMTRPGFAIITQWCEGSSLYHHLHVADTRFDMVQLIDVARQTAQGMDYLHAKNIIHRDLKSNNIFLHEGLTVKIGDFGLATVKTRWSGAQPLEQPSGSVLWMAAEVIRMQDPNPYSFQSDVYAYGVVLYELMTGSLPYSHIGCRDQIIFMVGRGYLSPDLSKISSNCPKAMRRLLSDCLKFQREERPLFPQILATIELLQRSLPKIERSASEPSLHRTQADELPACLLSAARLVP", "UniProt O00506, sequence (whole entry, looked up)": "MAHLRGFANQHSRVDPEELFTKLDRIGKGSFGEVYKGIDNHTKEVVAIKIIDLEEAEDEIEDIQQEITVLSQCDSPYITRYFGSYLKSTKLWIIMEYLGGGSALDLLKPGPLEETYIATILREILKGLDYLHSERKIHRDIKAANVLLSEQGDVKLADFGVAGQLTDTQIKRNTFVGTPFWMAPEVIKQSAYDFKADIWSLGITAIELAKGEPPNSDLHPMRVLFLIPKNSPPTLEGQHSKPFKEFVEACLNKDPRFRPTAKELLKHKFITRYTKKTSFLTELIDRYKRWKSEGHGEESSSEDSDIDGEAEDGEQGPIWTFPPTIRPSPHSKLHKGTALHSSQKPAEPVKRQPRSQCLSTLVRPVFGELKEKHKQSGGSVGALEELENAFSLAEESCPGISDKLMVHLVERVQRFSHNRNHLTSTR"}
{"data": "Block 1", "SMILES": "O=C(Nc1cccc(Nc2cc(Nc3cccc(C(F)(F)F)c3)ncn2)c1)C1CC1", "effect on": "enzyme activity", "action": "inhibitor", "concentration": "0.5 µM", "reference": "control"}
{"target": "Fibroblast growth factor receptor 1 (FGFR1, Homo sapiens, UniProt P11362)", "remaining activity [%]": 103}
{"target": "Dual specificity mitogen-activated protein kinase kinase 2 (MAP2K2, Homo sapiens, UniProt P36507)", "remaining activity [%]": 101}
{"target": "Mitogen-activated protein kinase 3 (MAPK3, Homo sapiens, UniProt P27361)", "remaining activity [%]": 101}
{"target": "Mitogen-activated protein kinase kinase kinase 5 (MAP3K5, Homo sapiens, UniProt Q99683)", "remaining activity [%]": 104}
{"target": "Fibroblast growth factor receptor 3 (FGFR3, Homo sapiens, UniProt P22607)", "remaining activity [%]": 102}
{"target": "Tyrosine-protein kinase ABL2 (ABL2, Homo sapiens, UniProt P42684)", "remaining activity [%]": 100}
{"target": "Ribosomal protein S6 kinase alpha-2 (RPS6KA2, Homo sapiens, UniProt Q15349)", "remaining activity [%]": 102}
{"target": "Serine/threonine-protein kinase Nek1 (NEK1, Homo sapiens, UniProt Q96PY6)", "remaining activity [%]": 109}
{"target": "Serine/threonine-protein kinase A-Raf (ARAF, Homo sapiens, UniProt P10398)", "remaining activity [%]": 95.1}
{"target": "Tyrosine-protein kinase Lck (LCK, Homo sapiens, UniProt P06239)", "remaining activity [%]": 100}
{"target": "Ephrin type-A receptor 3 (EPHA3, Homo sapiens, UniProt P29320)", "remaining activity [%]": 98.4}
{"target": "Serine/threonine-protein kinase TAO2 (TAOK2, Homo sapiens, UniProt Q9UL54)", "remaining activity [%]": 103}
{"target": "Tyrosine-protein kinase Mer (MERTK, Homo sapiens, UniProt Q12866)", "remaining activity [%]": 97.3}
{"target": "Macrophage-stimulating protein receptor (MST1R, Homo sapiens, UniProt Q04912)", "remaining activity [%]": 106}
{"data": "Block 2", "Structure (SMILES)": "CN([C@@H]1CCc2c(CC(=O)O)c3ccccc3n2C1)S(=O)(=O)c1ccc(F)cc1", "effect on": "cell-free assay", "technique": "competition with immobilised ligand", "concentration": "1 µM"}
{"target": "Calcium/calmodulin-dependent protein kinase type II subunit gamma (CAMK2G, Homo sapiens, UniProt Q13555)", "remaining binding [%]": 100}
{"target": "Serine/threonine-protein kinase PLK4 (PLK4, Homo sapiens, UniProt O00444)", "remaining binding [%]": 100}
{"target": "Phosphatidylinositol 3-kinase C2 domain-containing subunit gamma (PIK3C2G, Homo sapiens, UniProt O75747)", "remaining binding [%]": 95}
{"target": "Mast/stem cell growth factor receptor Kit, autoinhibited (KIT, Homo sapiens, UniProt P10721)", "remaining binding [%]": 96}
{"target": "Protein kinase C theta type (PRKCQ, Homo sapiens, UniProt Q04759)", "remaining binding [%]": 83}
{"target": "ALK tyrosine kinase receptor (ALK, Homo sapiens, UniProt Q9UM73, L1196M)", "remaining binding [%]": 74}
{"data": "Block 3", "Structure (SMILES)": "O=C(Nc1cnn(-c2csc(C(=O)NC3COC3)c2)c1)Nc1ccccc1Cl", "effect on": "enzyme activity", "concentration": "5 µM", "reference": "untreated control"}
{"target": "Macrophage-stimulating protein receptor (MST1R, Homo sapiens, UniProt Q04912)", "remaining activity": "94.2%"}
{"target": "cAMP-dependent protein kinase catalytic subunit alpha (PRKACA, Homo sapiens, UniProt P17612)", "remaining activity": "96.8%"}
{"target": "Serine/threonine-protein kinase 25 (STK25, Homo sapiens, UniProt O00506)", "remaining activity": "106%"}
{"target": "G protein-coupled receptor kinase 6 (GRK6, Homo sapiens, UniProt P43250)", "remaining activity": "97.8%"}
{"target": "Cyclin-dependent kinase 2, with cyclin E (CDK2, Homo sapiens, UniProt P24941)", "remaining activity": "97.7%"}
{"target": "Serine/threonine-protein kinase WNK3 (WNK3, Homo sapiens, UniProt Q9BYP7)", "remaining activity": "96.9%"}
{"target": "Cyclin-dependent kinase 1, with cyclin B (CDK1, Homo sapiens, UniProt P06493)", "remaining activity": "91.2%"}
{"target": "Megakaryocyte-associated tyrosine-protein kinase (MATK, Homo sapiens, UniProt P42679)", "remaining activity": "97.2%"}
{"target": "Serine/threonine-protein kinase tousled-like 1 (TLK1, Homo sapiens, UniProt Q9UKI8)", "remaining activity": "102%"}
{"data": "Block 4", "cell line": "mouse MPNST tumor cells", "technique": "high-content nuclear imaging", "item": "cell number", "concentration": "10 µM", "time": "12 h", "notes": "mean of 2 replicates", "reference": "plate mean", "reading": "higher = more cells"}
{"SMILES": "NS(=O)(=O)c1cc(C2(O)NC(=O)c3ccccc32)ccc1Cl (stereo not drawn)", "nuclei count": "0.407 z-score"}
{"SMILES": "NS(=O)(=O)c1ccc(-n2nc(C(F)(F)F)cc2-c2ccc(Cl)cc2)cc1", "nuclei count": "2.19 z-score"}
{"SMILES": "Cc1cc(=O)n(C)c2cc(N3C(=O)CC[C@H](NS(=O)(=O)CC(C)C)[C@H]3c3ccc(Cl)cc3)ccc12", "nuclei count": "2.19 z-score and 1.16 z-score"}
{"SMILES": "COCCOC(=O)C1=C(C)NC(C)=C(C(=O)OC(C)C)C1c1cccc([N+](=O)[O-])c1 (stereo not drawn)", "nuclei count": "1.45 z-score"}
{"SMILES": "c1ccc2c(c1)CCC[C@H]2Nc1nc2ccccc2[nH]1", "nuclei count": "2.37 z-score"}
{"SMILES": "O=S(=O)(NC1CCNCC1)c1cc(S(=O)(=O)c2ccccc2)ccc1C(F)(F)F", "nuclei count": "3.03 z-score"}
{"SMILES": "CCOC(=O)[C@H](CCc1ccccc1)N[C@@H](C)C(=O)N1CCC[C@H]1C(=O)O", "nuclei count": "1.65 z-score"}
